# Experimental data of several laboratories.
# Lines come from different studies, so protocols differ.
SMILES,organism,strain,time,notes,with,MIC
CCCCCCSCC1OC(OC2C(N)CC(N)C(OC3OC(CN)C(O)CC3N)C2O)C(O)C(N)C1O (centres unmarked),Shigella,clinical isolate,,,,> 150 µg/mL
CCCCc1ccc(-c2nc(C)c(C(C)=NNC(=N)N)s2)cc1,Staphylococcus aureus,NRS119 MRSA,,,,2.6 µg/mL
CC[C@H](C)[C@H](NC(=O)[C@H](CO)NC(=O)[C@H](CO)NC(=O)[C@H](Cc1ccccc1)NC(=O)CN)C(=O)N[C@@H](Cc1ccccc1)C(=O)N[C@@H](CCCNC(=N)N)C(=O)NCC(=O)N[C@H](C(=O)N[C@@H](C)C(=O)N[C@@H](CCCCN)C(N)=O)C(C)C,Escherichia coli,ATCC 8739,,20% FBS,,> 128 µM
CC[C@H](C)[C@H](NC(=O)[C@H](CCCCN)NC(=O)[C@H](CCCCN)NC(=O)[C@H](Cc1ccccc1)NC(=O)[C@H](Cc1ccccc1)NC(=O)[C@H](CCCCN)NC(=O)[C@H](CCCCN)NC(=O)[C@H](Cc1ccccc1)NC(=O)[C@H](CCCNC(=N)N)NC(=O)[C@@H](N)CCCCN)C(=O)N[C@@H](CCCCN)C(=O)N[C@@H](CCCCN)C(=O)N[C@@H](CO)C(=O)N[C@H](C(=O)N[C@@H](CCCCN)C(=O)N[C@@H](CCCCN)C(=O)N[C@@H](CCCNC(=N)N)C(=O)N[C@H](C(=O)N[C@@H](CCCCN)C(=O)N[C@@H](CCCCN)C(=O)N[C@@H](CC(C)C)C(=O)N[C@@H](Cc1ccccc1)C(=O)N[C@@H](CCCCN)C(=O)N[C@@H](CCCCN)C(=O)N1CCC[C@H]1C(=O)N[C@@H](CCCNC(=N)N)C(=O)N[C@H](C(=O)N[C@H](C(=O)N1CCC[C@H]1C(=O)N[C@H](C(=O)N[C@@H](CO)C(=O)N[C@H](C(=O)N1CCC[C@H]1C(=O)N[C@@H](Cc1ccccc1)C(=O)O)[C@@H](C)CC)[C@@H](C)CC)[C@@H](C)CC)C(C)C)C(C)C)C(C)C,Helicobacter pylori,SS1,48 h,,,4 µg/mL
[O-][N+]1=C(c2ccc(Cl)cc2)C2=NCCCN2c2ccccc21,Parvimonas micra,ATCC 3870,,,,0.25 µg/mL
CC[C@H](C)[C@H](NC(=O)[C@@H](NC(=O)CN)C(C)C)C(=O)N[C@@H](Cc1ccccc1)C(=O)N[C@@H](CC(N)=O)C(=O)N[C@@H](C)C(=O)N[C@@H](CC(C)C)C(=O)N[C@@H](CCCCN)C(=O)NCC(=O)N[C@H](C(=O)N[C@@H](C)C(=O)N[C@@H](CCCCN)C(=O)N[C@H](C(=O)N[C@H](C(=O)N[C@@H](C)C(=O)N[C@@H](C)C(=O)N[C@@H](CCC(N)=O)C(=O)N[C@@H](CC(C)C)C(=O)N[C@@H](CC(C)C)C(=O)N[C@@H](CCCCN)C(=O)N[C@@H](CCCCN)C(=O)N[C@@H](C)C(=O)N[C@@H](CCCNC(=N)N)C(=O)N[C@H]1CSSC[C@@H](C(=O)O)NC(=O)[C@H](CO)NC(=O)[C@H](CCCCN)NC(=O)[C@H](CC(=O)O)NC(=O)[C@H](CC(C)C)NC(=O)[C@H](CCCCN)NC1=O)C(C)C)[C@@H](C)O)C(C)C,Staphylococcus aureus,MRSA NCTC 12493,,,horse serum 10%,2 µM
[O-][N+]1=C(Cc2ccccc2)C2=NCCCN2c2ccccc21,Porphyromonas sp.,,,,,1 µg/mL
CN(C)CCCNC(=O)[C@@H]1NC(=O)[C@@H]2Cc3ccc(cc3)Oc3cc4cc(c3O)-c3ccc5c(c[nH]c5c3)C[C@@H](NC(=O)C(NC(=O)CCCCCN)c3ccc(O)cc3)C(=O)N[C@H](c3ccc(O)cc3)C(=O)N[C@H]4C(=O)N[C@@H](C(=O)N2C)c2ccc(cc2)Oc2cc1ccc2O (some centres unmarked),Enterococcus faecium,"WCC 0586, VRE-A",,,,1 to 2 µg/mL
CO[C@H]1/C=C/O[C@@]2(C)Oc3c(C)c(O)c4c(c3C2=O)C2=NC3(CCN(CC(C)C)CC3)NC2=C(NC(=O)/C(C)=C\C=C\[C@H](C)[C@H](O)[C@@H](C)[C@@H](O)[C@@H](C)[C@H](OC(=O)c2ccc(C)cc2)[C@@H]1C)C4=O,Mycobacteroides abscessus,ATCC 19977 arr deletion,,90% growth inhibition,,0.11 µM
CN1C(=O)[C@@H]2NC(=O)[C@@H]3NC(=O)[C@@H](c4ccc(O)cc4)NC(=O)[C@H](NC(=O)C(N)c4ccc(O)cc4)Cc4c[nH]c5cc(ccc45)-c4cc3cc(c4O)Oc3ccc(cc3)C[C@H]1C(=O)N[C@@H](C(=O)O)c1ccc(O)c(c1)Oc1ccc2cc1 (some centres unmarked),Enterococcus faecium,"WCC 0502, VRE-A",,,,4 to 8 µg/mL
CN[C@@H]1[C@H](O)[C@H](NC)[C@H]2O[C@]3(O)[C@H](O[C@@H]2[C@H]1O)O[C@H](C)C[C@@]3(O)CNCCC1CCOCC1,Mycobacteroides abscessus,ATCC 19977 ∆whiB7 ∆tap,120 h,,,8 µg/mL

# Some of these lines once more:
SMILES,organism,strain,time,notes,with,MIC
CC[C@H](C)[C@H](NC(=O)[C@H](CCCCN)NC(=O)[C@H](CCCCN)NC(=O)[C@H](Cc1ccccc1)NC(=O)[C@H](Cc1ccccc1)NC(=O)[C@H](CCCCN)NC(=O)[C@H](CCCCN)NC(=O)[C@H](Cc1ccccc1)NC(=O)[C@H](CCCNC(=N)N)NC(=O)[C@@H](N)CCCCN)C(=O)N[C@@H](CCCCN)C(=O)N[C@@H](CCCCN)C(=O)N[C@@H](CO)C(=O)N[C@H](C(=O)N[C@@H](CCCCN)C(=O)N[C@@H](CCCCN)C(=O)N[C@@H](CCCNC(=N)N)C(=O)N[C@H](C(=O)N[C@@H](CCCCN)C(=O)N[C@@H](CCCCN)C(=O)N[C@@H](CC(C)C)C(=O)N[C@@H](Cc1ccccc1)C(=O)N[C@@H](CCCCN)C(=O)N[C@@H](CCCCN)C(=O)N1CCC[C@H]1C(=O)N[C@@H](CCCNC(=N)N)C(=O)N[C@H](C(=O)N[C@H](C(=O)N1CCC[C@H]1C(=O)N[C@H](C(=O)N[C@@H](CO)C(=O)N[C@H](C(=O)N1CCC[C@H]1C(=O)N[C@@H](Cc1ccccc1)C(=O)O)[C@@H](C)CC)[C@@H](C)CC)[C@@H](C)CC)C(C)C)C(C)C)C(C)C,Helicobacter pylori,SS1,48 h,,,4 µg/mL
CN[C@@H]1[C@H](O)[C@H](NC)[C@H]2O[C@]3(O)[C@H](O[C@@H]2[C@H]1O)O[C@H](C)C[C@@]3(O)CNCCC1CCOCC1,Mycobacteroides abscessus,ATCC 19977 ∆whiB7 ∆tap,120 h,,,8 µg/mL
